# Assay results collected from several papers.
# Every numbered part comes from another study and shows a few of its results, in no order.

# Series 1 — technique: protein binding microarray; molecule type: double-stranded DNA, one strand shown; medium: in vitro; tested at: not given; relative to: not given; direction: higher = stronger binding
# Target: Histone acetyltransferase KAT6A, both winged helices, GST fusion (KAT6A, Homo sapiens, UniProt Q92794, residues 1-181)
# Notes: 8-mer, flanks averaged, mean of 2 arrays, mostly near background
# Residues (chain): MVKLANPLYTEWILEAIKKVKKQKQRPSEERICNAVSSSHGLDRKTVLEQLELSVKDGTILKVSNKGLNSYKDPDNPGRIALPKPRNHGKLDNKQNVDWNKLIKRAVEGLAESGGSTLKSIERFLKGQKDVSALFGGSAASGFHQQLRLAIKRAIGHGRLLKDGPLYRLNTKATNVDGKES
Oligonucleotide,E-score
GAGCCGGC,0.235
ATTTGGGG,-0.18
CGGCAATC,0.291
TCGTAAAA,0.0533
AGCGAGAA,-0.0932
ACACTTTG,-0.154
CCCTAGAA,-0.0256
AACATAAA,-0.194
AAACGCCT,-0.0757
GCGAATTA,0.0568
ATCACGGC,0.314
AGCGAACT,-0.198
AAGTTTAC,-0.0478

# Series 2 — technique: universal PBM; molecule type: double-stranded DNA, one strand shown; medium: in vitro; tested at: not given; direction: higher = stronger binding
# Target: Sal-like protein 4, full length isoform B (SALL4, Homo sapiens, UniProt Q9UJQ4-2, residues 1-616)
# Notes: 8-mer, flanks averaged, mean of replicates
# Target sequence (chain): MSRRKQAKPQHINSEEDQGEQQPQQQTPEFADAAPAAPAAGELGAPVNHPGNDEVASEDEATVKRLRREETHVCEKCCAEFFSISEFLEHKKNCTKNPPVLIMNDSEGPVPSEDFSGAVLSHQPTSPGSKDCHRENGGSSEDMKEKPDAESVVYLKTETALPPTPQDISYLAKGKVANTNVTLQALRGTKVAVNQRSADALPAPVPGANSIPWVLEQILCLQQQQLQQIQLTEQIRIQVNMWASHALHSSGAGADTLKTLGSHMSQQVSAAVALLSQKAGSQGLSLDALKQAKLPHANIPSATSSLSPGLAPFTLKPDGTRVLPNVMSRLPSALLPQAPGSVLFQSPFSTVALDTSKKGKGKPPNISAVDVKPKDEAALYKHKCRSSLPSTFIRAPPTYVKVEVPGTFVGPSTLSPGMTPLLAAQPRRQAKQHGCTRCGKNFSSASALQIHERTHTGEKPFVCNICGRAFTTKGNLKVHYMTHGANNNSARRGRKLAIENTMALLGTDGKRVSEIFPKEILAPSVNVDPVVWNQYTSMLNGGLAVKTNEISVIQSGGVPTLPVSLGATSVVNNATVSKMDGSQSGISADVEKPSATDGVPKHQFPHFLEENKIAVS
Oligonucleotide,E-score
CACAAAAC,0.108
CATTGACG,0.0285
CCCTTTGC,-0.0877
TAAGTGGA,0.154
GGGCTACC,-0.335
GGGCAACA,-0.0955
CGACCTAG,-0.102
CTAATTGA,0.15

# Series 3 — technique: RNA Bind-n-Seq; molecule type: RNA; medium: in vitro; tested at: 200 nM; notes: whole 134-nt RNA, ends assumed; with: 150 mM KCl; relative to: input library; direction: higher = stronger binding
# Target: Fragile X messenger ribonucleoprotein 1, C-terminal low-complexity region (Fmr1, Mus musculus, UniProt P35922)
Oligonucleotide,log2 enrichment
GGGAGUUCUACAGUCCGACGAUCUCAAGUCCUGUGCUACACAUCGUAUGUACCGAAUCGGGCCGGGCCGGGGCCGGGAAAGUAUUAUGUUACGCCGUUCGGAUCUGCACUUCCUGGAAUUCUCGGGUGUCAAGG,0.318
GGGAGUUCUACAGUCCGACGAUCAGUCCUGUGCUACACAUCGUAUGUACCGAAUCGGGAAAAGGGGAAAAGGGAAAAGGGGAAAGUAUUAUGUUACGCCGUUCGGAUCUGCACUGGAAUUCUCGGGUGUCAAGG,0.307
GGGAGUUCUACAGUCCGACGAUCGUCCUGUGCUACACAUCGUAUGUACCGAAUCGGGGAAAAAGGAAAAAGGAAAAAGGGGAAAGUAUUAUGUUACGCCGUUCGGAUCUGCACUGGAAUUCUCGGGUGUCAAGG,-0.29
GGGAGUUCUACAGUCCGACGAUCGAGGGAGUUUGCAGAUACCUCAGGAUUCGUGACAAUGCCUUUAAAGAUCCAGGAGAGAUGUUCAGCUACUAGGAACUGCUAGCAAGUAUAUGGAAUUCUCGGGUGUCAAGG,-0.2
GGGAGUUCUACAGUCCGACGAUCUCAAGUCCUGUGCUACACAUCGUAUGUACCGAAUCGGAGGAAAGGAAAAAAAGGAAAGUAUUAUGUUACGCCGUUCGGAUCUGCACUUCCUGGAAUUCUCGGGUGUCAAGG,-0.689
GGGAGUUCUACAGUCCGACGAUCUAACUUUAGAGGAGGAUCUGAUGGAUAUGGCAGUGGACGUGAAUUUGGGGAUGGCUAUAAUGGGUAUGGAGGAGGACCUGGAGGUGGCAAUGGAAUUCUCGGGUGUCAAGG,0.305
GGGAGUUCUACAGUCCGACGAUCUAACUUUACAGGAGGAUCUGAUGGAUAUGGCAGUGGACGUGGAUUUGGGGAUGGCUAUAAUGGGUAUGGAGGAGGACCUGGAGGUGGCAAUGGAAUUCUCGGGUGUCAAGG,0.406
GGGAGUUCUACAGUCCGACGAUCUCCUGUGCUACACAUCGUAUGUACCGAAUCGGCCCCCGGGGCCCCCGGGGCCCCCGGGGAAAGUAUUAUGUUACGCCGUUCGGAUCUGCAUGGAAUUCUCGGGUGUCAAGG,-1.05
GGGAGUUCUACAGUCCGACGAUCUGGGAGAUGGAUUUUGUUUAUUUUUUUAGCUCAUUUCCAGGGGUGGGAAUUUUUUUUUAAUAUGUGUCAUGAAUAAAGUUGUUUUUGAAAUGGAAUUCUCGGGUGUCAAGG,-0.369
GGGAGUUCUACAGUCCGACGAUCUAACUUUAGAGGAGGAUCUGAUGGACAUGGCAGUGGACGUGGAUUUGGGGAUGGCUAUAAUGGGUAUGGAGGAGGACCUGGAGGUGGCAAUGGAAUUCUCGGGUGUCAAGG,0.282
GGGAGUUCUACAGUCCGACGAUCUAACUUUAGAGCAGGAUCUGAUGGAUAUGGCAGUGGACGUGGAUUUGGGGAUGGCUAUAAUGGGUAUGGAGGAGGACCUGGAGGUGGCAAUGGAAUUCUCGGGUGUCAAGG,0.428
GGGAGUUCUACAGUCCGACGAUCUCAAGUCCUGUGCUACACAUCGUAUGUACCGAAUCGGGUUUGGGUUUGGGUGGGAAAGUAUUAUGUUACGCCGUUCGGAUCUGCACUUCCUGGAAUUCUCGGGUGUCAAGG,1.36
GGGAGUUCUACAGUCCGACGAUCUGUCCUGUGCUUUCACAUUCUUUCUGCAUGGAGAAAGUAAUGUAUGCACAAGUGUGGAGAUUGCCCAGCACCAGCCAAUUUAUUUGAUCAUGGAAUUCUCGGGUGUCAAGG,-1.1

# Series 4 — Molecule: PSSMRKICTYFHR; observed: peptide binding; molecule type: peptide; direction: direction not given
target or system,technique,organism,strain,notes,enrichment score
Saccharomyces cerevisiae,yeast competitive growth sequencing,,cyclin E2-Cln2 fusion,library 2,-1.13
Saccharomyces cerevisiae,yeast competitive growth sequencing,,cyclin F-Cln2 fusion,library 2,-0.612
human cyclin A2,competitive growth sequencing,Saccharomyces cerevisiae,cyclin A2-Cln2 fusion strain,mutational scanning library 2,-0.58

# Other studies, line by line
Substance,target,test,test system,conditions,how to read,endpoint,result
"PhoQ, residues 284 288 289 292 302 303 NLCILV","PhoP, residues 12 14 15 18 19 MHTVL (Escherichia coli, UniProt P23836)","Sort-seq, refers to: YFP reporter",E. coli,"PhoQ-PhoP variant library, with: 10 µM Mg2+","relative to: high Mg2+ state, higher = stronger signaling",fold induction,6.83

# A few entries again (series 3):
Oligonucleotide,log2 enrichment
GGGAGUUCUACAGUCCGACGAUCUAACUUUAGAGGAGGAUCUGAUGGAUAUGGCAGUGGACGUGAAUUUGGGGAUGGCUAUAAUGGGUAUGGAGGAGGACCUGGAGGUGGCAAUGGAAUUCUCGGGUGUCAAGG,0.305
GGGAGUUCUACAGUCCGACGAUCUAACUUUACAGGAGGAUCUGAUGGAUAUGGCAGUGGACGUGGAUUUGGGGAUGGCUAUAAUGGGUAUGGAGGAGGACCUGGAGGUGGCAAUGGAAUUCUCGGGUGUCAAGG,0.406
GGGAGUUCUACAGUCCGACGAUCUCCUGUGCUACACAUCGUAUGUACCGAAUCGGCCCCCGGGGCCCCCGGGGCCCCCGGGGAAAGUAUUAUGUUACGCCGUUCGGAUCUGCAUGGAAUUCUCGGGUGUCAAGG,-1.05
